{"data": "Assay results gathered from unrelated publications", "note": "Lines come from different studies, so protocols differ. Several values in a cell are separate wells, animals, samples, runs or records. ± marks the error that the study gave."}
{"Structure (SMILES)": "CO[C@H]1C[C@@H]2CC[C@@H](C)[C@@](O)(O2)C(=O)C(=O)N2CCCC[C@H]2C(=O)O[C@H]([C@H](C)C[C@@H]2CC[C@@H](OC(=O)NCCOCCOCCOCCOCCOCCOCCOCCOCCC(=O)N3CCc4cc(Cn5nc(-c6ccc7oc(N)nc7c6)c6c(N)ncnc65)ccc4C3)[C@H](OC)C2)C[C@@H](O)[C@H](C)/C=C(\\C)[C@@H](O)[C@@H](OC)C(=O)[C@H](C)C[C@H](C)/C=C/C=C/C=C/1C", "test system": "patients with advanced solid tumours", "setting": "intravenous, dose not given, any grade", "endpoint": "Neutropenia AE leading to dose reduction", "result": "1.8%"}
{"Structure (SMILES)": "C[C@]1(CO)Cc2ncn(-c3ccc(C#N)c(Cl)c3)c2C(=O)O1", "test system": "human", "setting": "20 mg multiple doses, fasted", "endpoint": "subjects with drug-related dizziness", "result": "0%"}
{"Structure (SMILES)": "COc1ccc([C@@H](O)c2cc(-c3ncnc4cc(N5CCOCC5)ccc34)c(F)cc2Cl)nn1", "test system": "patients, advanced solid tumours", "setting": "oral, 300 mg twice daily, treatment-emergent, added: avelumab", "endpoint": "gastrointestinal disorders incidence", "result": "4%"}
{"Structure (SMILES)": "O=C(O)CNCP(=O)(O)O", "test system": "whole cow milk", "setting": "200 nM nominal", "endpoint": "dose fraction in skim milk", "result": "99.1%"}
{"Structure (SMILES)": "C[C@@H](NC(=O)N1C(=O)[C@H](Cc2ccnc(N)c2)[C@H]1C(=O)O)C1CCCCC1", "test system": "healthy adult Chinese volunteers", "setting": "continuous intravenous infusion, 0.3 mg/kg/h, 5-day infusion, CTCAE 5.0 grading", "endpoint": "incidence of drug-related AEs", "result": "12.5%"}
{"Structure (SMILES)": "CC(=O)c1c(C)c2cnc(Nc3ccc(C4CCN(CCS(C)(=O)=O)CC4)cn3)nc2n(C2CCCC2)c1=O", "test system": "human, plasma", "setting": "oral, 25 mg once daily, day 1, single dose", "endpoint": "AUC(0-t)", "result": "354 ng·h/mL"}
{"Structure (SMILES)": "CCCc1cc(O)c(C/C=C(\\C)CCC=C(C)C)c(O)c1", "assay": "LC-MS/MS", "test system": "Scn1a+/− mouse, plasma", "setting": "intraperitoneal, 10 mg/kg, after hyperthermia protocol", "endpoint": "plasma concentration", "result": "807 ± 182 ng/mL"}
{"Structure (SMILES)": "CN1CC[C@@H](c2c(O)cc(O)c3c(=O)cc(-c4ccc(C(F)(F)F)cc4Cl)oc23)[C@@H]1CO", "assay": "item: Anemia", "test system": "relapsed AML", "setting": "oral, 100 mg, grade 3-4, intermittent dosing", "endpoint": "patients with adverse event", "result": "0%"}
{"Structure (SMILES)": "Nc1ncnc2c1ncn2[C@@H]1O[C@@H]2COP(=O)([S-])O[C@@H]3[C@H](O)[C@@H](COP([O-])(=S)O[C@H]2[C@H]1O)O[C@H]3n1cnc2c(N)ncnc21.[Na+].[Na+] (stereo partly drawn)", "test system": "non-tumor-bearing mice, serum", "setting": "intravenous, 1 mg/kg, toxicity study", "endpoint": "AST", "result": "201 ± 31.7 U/L"}
{"Structure (SMILES)": "COc1ccc2nc3cc(Cl)ccc3c(Nc3cc(CN4CCCC4)c(O)c(CN4CCCC4)c3)c2n1", "test system": "mouse, blood", "setting": "intraperitoneal, 57 mg/kg", "endpoint": "platelet distribution width", "result": "15.6%"}
{"Structure (SMILES)": "CN(C(=O)n1cnc(-c2ccc[n+]([O-])c2)c1)C1CCCCC1", "test system": "Wistar rat, pons", "setting": "oral, 10 mg/kg, 24 h, single dose", "endpoint": "concentration", "result": "14.4 ± 1 ng/g"}
{"Structure (SMILES)": "O=C(O)C(O)(c1cccs1)c1cccs1", "assay": "item: metabolite", "test system": "human, plasma", "setting": "oral, 10 mg once daily, 5 days, median", "endpoint": "dose-normalised free AUC(0-24)", "result": "0.296 (ng·h/mL)/mg"}
{"Structure (SMILES)": "COc1ccc(-c2c(-c3ccc(C#N)c(F)c3)nc(N3CCC(N)CC3)n(C)c2=O)cc1F", "assay": "item: Vomiting", "test system": "relapsed/refractory marginal zone lymphoma patients", "setting": "oral, 60 mg, any grade, dose expansion", "endpoint": "treatment-related adverse event incidence", "result": "0%"}
{"Structure (SMILES)": "COc1ccnc(C(=O)N[C@H]2COC(=O)[C@H](Cc3ccccc3)[C@@H](OC(=O)C(C)C)[C@H](C)OC2=O)c1OCOC(=O)C(C)C", "test system": "field soil, loamy sand", "setting": "actual, Germany", "endpoint": "DT50", "result": "5.29 days"}
{"Structure (SMILES)": "O=C1Nc2cc3[nH]nc(-c4ccncc4)c3cc2CN1Cc1ccccc1", "assay": "CTCAE v4.03", "test system": "advanced solid tumour patients", "setting": "intravenous, 3.6 mg/kg, schedules 1/2", "endpoint": "patients with cough", "result": "33%"}
{"Structure (SMILES)": "CCc1ccc(CC/C=C/c2ccc3c(c2)C(=O)CC3)cc1", "test system": "Sprague-Dawley rat, female", "setting": "oral, 30 mg/kg/day, 14 days", "endpoint": "Basophil percentage", "result": "0.27%"}
{"Structure (SMILES)": "O=C(O)CCC(CP(=O)(O)O)C(=O)O (stereo not drawn)", "test system": "rat, plasma", "setting": "8 µg/mL, 28 days, -80 °C, long-term stability", "endpoint": "measured concentration", "result": "7.73 ± 0.27 µg/mL"}
{"Structure (SMILES)": "CC[C@H](C)[C@H](NC(=O)[C@H](Cc1ccccc1)NC(=O)[C@H](CCC(=O)O)NC(=O)[C@H](CCCNC(=N)N)NC(=O)[C@H](C)NC(=O)[C@H](C)NC(=O)[C@H](CCC(N)=O)NC(=O)[C@H](CCC(=O)O)NC(=O)[C@H](CCC(=O)O)NC(=O)[C@H](CC(C)C)NC(=O)[C@H](Cc1ccc(O)cc1)NC(=O)[C@H](CO)NC(=O)[C@H](CO)NC(=O)[C@@H](NC(=O)[C@H](CC(=O)O)NC(=O)[C@H](CO)NC(=O)[C@@H](NC(=O)[C@H](Cc1ccccc1)NC(=O)[C@@H](NC(=O)CNC(=O)[C@H](CCC(=O)O)NC(=O)[C@H](C)NC(=O)CCc1cnc[nH]1)[C@@H](C)O)[C@@H](C)O)C(C)C)C(=O)N[C@@H](C)C(=O)N[C@@H](Cc1c[nH]c2ccccc12)C(=O)N[C@@H](CC(C)C)C(=O)N[C@H](C(=O)N[C@@H](CCCNC(=N)N)C(=O)NCC(=O)N[C@@H](CCCNC(=N)N)C(=O)N[C@@H](CCCCNC(=O)COCCOCCNC(=O)COCCOCCNC(=O)CC[C@H](NC(=O)CCCCCCCCCCCCCCCCC(=O)O)C(=O)O)C(=O)NCC(=O)NCC(=O)N[C@@H](CO)C(=O)N[C@@H](CCSC)C(=O)N[C@H](C(=O)N[C@@H](CCCCNc1c(NCCCCCN(O)C(=O)CCC(=O)NCCCCCN(O)C(=O)CCC(=O)NCCCCCN(O)C(C)=O)c(=O)c1=O)C(=O)O)C(C)C)C(C)C [zirconium-89 labelled]", "assay": "ex vivo gamma counting", "test system": "Sprague-Dawley rat, brain", "setting": "intravenous, dose not given, 24 h", "endpoint": "tissue uptake", "result": "0.009 %ID/g"}
{"Structure (SMILES)": "CC(C)NCCCC[C@@H]1NC(=O)[C@H](Cc2ccc(O)cc2)NC(=O)[C@H](Cc2ccccc2)NC(=O)CC[C@H](C(=O)N[C@@H](CCCCNC(C)C)C(=O)N[C@@H](CCCCNC(=O)[C@H](CCC(=O)O)NC(=O)[C@H](CCC(=O)O)NC(=O)[C@H](CCC(=O)O)NC(=O)CN2CCN(CC(=O)O)CCN(CC(=O)O)CC2)C(N)=O)NC(=O)CNC(=O)[C@H](Cc2ccc3ccccc3c2)NC(=O)[C@@H](CCCNC(=N)N)NC1=O [fluorine-18 labelled]", "test system": "mouse, plasma", "setting": "10 min, post injection", "endpoint": "intact parent fraction", "result": "97%"}
{"Structure (SMILES)": "NC1(C(=O)N[C@@H](CCO)c2ccc(Cl)cc2)CCN(c2nc[nH]c3nccc2-3)CC1", "test system": "metastatic CRPC patients", "setting": "400 mg b.i.d., any grade, treatment-related, added: enzalutamide 160 mg daily", "endpoint": "incidence of Vomiting", "result": "42.9%"}
{"Structure (SMILES)": "Cc1cccc(Cn2nc(C3CC3)c3c(NC(=O)c4cnc5cc(OCCN6CCN(C)CC6)ccn45)cccc32)n1", "assay": "item: Nausea", "test system": "human advanced solid tumours", "setting": "oral, dose not given, all-causality,, all doses", "endpoint": "adverse events incidence", "result": "26.3%"}
{"Structure (SMILES)": "COc1cc2c(Oc3ccc4[nH]c(C)cc4c3F)ccnc2cc1OCC1(N)CC1", "test system": "paediatric recurrent refractory sarcoma", "setting": "concentration not given, whole group", "endpoint": "grade 1 or 2 Epistaxis", "result": "23.5%"}
{"Structure (SMILES)": "C[C@H]1CN(C(=O)CC#N)[C@]12CCN(c1ncnc3[nH]ccc13)C2", "test system": "dog male and female", "setting": "oral, 9 months, repeated-dose toxicity study", "endpoint": "NOAEL", "result": "0.6 mg/kg"}
{"Structure (SMILES)": "CC(C)CC(=O)OC[C@H]1O[C@@](C#N)(c2ccc3c(N)ncnn23)[C@H](O)[C@@H]1O", "assay": "plasma protein binding", "test system": "rat plasma", "setting": "90 µM, time not given", "endpoint": "recovery", "result": "84.2%"}
{"Structure (SMILES)": "CN(C)C1(CNC(=O)c2ccc3c(c2)CCN3C(=O)c2ccccc2)CCOCC1", "test system": "ICR mouse, male, plasma", "setting": "intraperitoneal, 30 mg/kg", "endpoint": "AUC(0-last)", "result": "241 ± 40 ng·h/mL"}
{"Structure (SMILES)": "N[C@@H]1c2ccccc2OC12CCN(c1cnc3c(N4CCCc5ncccc54)n[nH]c3n1)CC2", "test system": "patients advanced metastatic solid tumours", "setting": "oral, dose not given, dose escalation total", "endpoint": "incidence of any serious TEAE", "result": "36.1%"}
{"Structure (SMILES)": "COc1cccc(Oc2ccccc2NC(=O)CNC(=O)c2cccc3ccccc23)c1", "test system": "esterase-deficient SCID mice, male", "setting": "oral, 100 mg/kg/day, 14 days, toxicity study", "endpoint": "albumin/globulin ratio", "result": "1.4 and 1.3"}
{"Structure (SMILES)": "O=C(Nc1ccccc1)C1CCN(C(=O)Oc2cccnc2)CC1", "assay": "psychotropic effects VAS", "test system": "healthy women", "setting": "60 mg", "scale": "reference: pre-dose baseline, direction not given", "endpoint": "change in Anxious score", "result": -0.5}
{"Structure (SMILES)": "CC(C)(c1ccccc1)c1cc(-n2nc3ccccc3n2)c(O)c(C(C)(C)c2ccccc2)c1", "test system": "human aged 2-3 years", "setting": "concentration not given, sunscreen, 95th percentile", "endpoint": "daily dermal exposure dose", "result": "1.97 ng/kg/day"}
{"Structure (SMILES)": "Cc1cc(C)c(CNC(=O)c2cc(Cl)c3c(c2C)O[C@@](C)([C@H]2CC[C@H](N(C)C)CC2)O3)c(=O)[nH]1", "test system": "relapsed/refractory NHL patients", "setting": "dose not given, trial, safety set, all TEAEs grade 5", "endpoint": "incidence of lactic acidosis", "result": "0%"}
{"Structure (SMILES)": "CCN1[C@@H](C(=O)NC23CCC(C(=O)O)(CC2)CC3)[C@H](c2cccc(Cl)c2F)[C@]2(C(=O)Nc3cc(Cl)ccc32)C12CCCCC2", "test system": "patients with advanced solid tumours", "setting": "oral, 150 mg", "endpoint": "abdominal pain incidence", "result": "12.5%"}
{"Structure (SMILES)": "O=S(=O)(Nc1ccccc1)c1ccc(NC(=S)Nc2ccccc2)cc1", "assay": "item: EO%", "test system": "male mouse, blood", "setting": "oral, 5 mg/kg daily, 14 days", "endpoint": "blood cell fraction", "result": "1.16%"}
{"Structure (SMILES)": "CC(C)C[C@H](NC(=O)[C@H](CCCCN)NC(=O)OCC1c2ccccc2-c2ccccc21)C(=O)N[C@H](C(=O)N[C@@H](Cc1ccccc1)C(=O)N[C@@H](Cc1ccccc1)C(=O)N[C@@H](CCCCN)C(=O)NCC(=O)N[C@@H](Cc1ccccc1)C(=O)N[C@@H](C)C(=O)N[C@@H](Cc1c[nH]c2ccccc12)C(=O)N[C@@H](CC(N)=O)C(=O)N[C@H](C(=O)N[C@H]1CSSC[C@@H](C(=O)N[C@@H](Cc2c[nH]cn2)C(=O)N[C@@H](CCCNC(=N)N)C(=O)N[C@@H](CCCNC(=N)N)C(=O)N[C@@H](C)C(=O)N[C@@H](CC(N)=O)C(N)=O)NC(=O)[C@H](C(C)C)NC(=O)[C@H](CCCNC(=N)N)NC(=O)[C@H](C(C)C)NC(=O)CNC(=O)[C@H](CC(N)=O)NC(=O)[C@H](CCCNC(=N)N)NC(=O)[C@H](Cc2ccc(O)cc2)NC(=O)[C@H](C(C)C)NC1=O)C(C)C)C(C)C", "test system": "ICR mice, serum", "setting": "intraperitoneal, 10 mg/kg, day 5", "endpoint": "AST", "result": "28.2 ± 1.08 IU/L"}
{"Structure (SMILES)": "O=C(O)CCc1ccccc1", "test system": "human plasma", "setting": "5 µM, 6 h", "endpoint": "fraction unbound", "result": 0.09}
{"Structure (SMILES)": "O=C(Nc1ccc2c(c1)B(O)OC2)c1ccc(Oc2ccccc2)cc1", "assay": "PAMPA", "test system": "pre-coated trilayer membrane", "setting": "200 µM, 5 h, pH 7.4, acceptor plate, PBS", "endpoint": "acceptor concentration", "result": "3.5 ± 0.6 µM"}
{"Structure (SMILES)": "CCC[C@@](N)(CO)CCc1ccc(OCCCCCC(C)C)cc1", "test system": "hound dogs, male", "setting": "oral, 10 mg/kg, capsule, fed state, geometric mean", "endpoint": "AUC(0-last)", "result": "12.6 µM·h"}
